Measured values collected from several papers.
A part holds a random share of what one study measured.
UniProt P78356, sequence (whole entry, looked up): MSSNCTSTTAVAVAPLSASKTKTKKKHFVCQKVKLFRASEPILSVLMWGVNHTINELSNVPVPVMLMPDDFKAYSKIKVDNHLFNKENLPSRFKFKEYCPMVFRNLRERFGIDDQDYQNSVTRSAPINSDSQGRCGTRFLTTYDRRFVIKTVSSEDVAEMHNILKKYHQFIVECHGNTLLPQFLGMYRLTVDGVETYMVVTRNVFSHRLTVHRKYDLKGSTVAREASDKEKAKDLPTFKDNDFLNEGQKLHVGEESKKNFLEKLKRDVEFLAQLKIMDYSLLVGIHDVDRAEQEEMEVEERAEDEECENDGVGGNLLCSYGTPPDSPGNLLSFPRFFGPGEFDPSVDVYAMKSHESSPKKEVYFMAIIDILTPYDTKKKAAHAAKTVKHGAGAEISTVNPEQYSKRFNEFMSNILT
UniProt P49674, sequence (whole entry, looked up): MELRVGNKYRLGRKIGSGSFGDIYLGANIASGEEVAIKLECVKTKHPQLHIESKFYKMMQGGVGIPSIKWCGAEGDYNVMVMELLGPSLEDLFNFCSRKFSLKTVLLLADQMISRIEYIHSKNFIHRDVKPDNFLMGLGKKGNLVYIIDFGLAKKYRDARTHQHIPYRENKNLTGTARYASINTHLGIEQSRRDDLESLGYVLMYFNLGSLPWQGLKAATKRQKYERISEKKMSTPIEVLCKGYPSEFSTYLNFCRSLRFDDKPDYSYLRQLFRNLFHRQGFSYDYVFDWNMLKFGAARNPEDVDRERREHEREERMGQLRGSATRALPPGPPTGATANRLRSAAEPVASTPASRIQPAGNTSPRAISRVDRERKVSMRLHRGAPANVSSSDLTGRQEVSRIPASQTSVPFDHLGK
UniProt Q59H18, sequence (whole entry, looked up): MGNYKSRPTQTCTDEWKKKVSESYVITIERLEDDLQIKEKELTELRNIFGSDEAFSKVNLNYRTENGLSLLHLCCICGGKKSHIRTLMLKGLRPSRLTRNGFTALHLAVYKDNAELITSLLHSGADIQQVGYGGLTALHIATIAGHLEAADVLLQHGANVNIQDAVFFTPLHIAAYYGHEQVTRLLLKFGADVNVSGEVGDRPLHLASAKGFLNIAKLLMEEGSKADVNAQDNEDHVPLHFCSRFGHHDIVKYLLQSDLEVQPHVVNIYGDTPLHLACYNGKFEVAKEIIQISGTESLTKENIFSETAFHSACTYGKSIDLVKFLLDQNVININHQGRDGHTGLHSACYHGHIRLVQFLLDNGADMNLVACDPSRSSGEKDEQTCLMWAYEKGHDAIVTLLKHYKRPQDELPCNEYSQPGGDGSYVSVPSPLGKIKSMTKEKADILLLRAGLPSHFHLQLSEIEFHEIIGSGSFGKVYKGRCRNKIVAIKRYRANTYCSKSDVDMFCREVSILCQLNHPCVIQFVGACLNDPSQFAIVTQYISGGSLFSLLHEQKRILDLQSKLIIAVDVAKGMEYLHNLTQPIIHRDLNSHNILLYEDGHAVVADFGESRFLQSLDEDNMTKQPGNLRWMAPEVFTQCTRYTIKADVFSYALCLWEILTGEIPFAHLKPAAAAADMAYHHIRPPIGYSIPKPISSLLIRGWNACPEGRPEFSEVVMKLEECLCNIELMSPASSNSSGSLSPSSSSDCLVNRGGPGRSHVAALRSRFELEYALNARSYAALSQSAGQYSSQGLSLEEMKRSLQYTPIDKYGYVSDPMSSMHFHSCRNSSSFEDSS
UniProt P42680, sequence (whole entry, looked up): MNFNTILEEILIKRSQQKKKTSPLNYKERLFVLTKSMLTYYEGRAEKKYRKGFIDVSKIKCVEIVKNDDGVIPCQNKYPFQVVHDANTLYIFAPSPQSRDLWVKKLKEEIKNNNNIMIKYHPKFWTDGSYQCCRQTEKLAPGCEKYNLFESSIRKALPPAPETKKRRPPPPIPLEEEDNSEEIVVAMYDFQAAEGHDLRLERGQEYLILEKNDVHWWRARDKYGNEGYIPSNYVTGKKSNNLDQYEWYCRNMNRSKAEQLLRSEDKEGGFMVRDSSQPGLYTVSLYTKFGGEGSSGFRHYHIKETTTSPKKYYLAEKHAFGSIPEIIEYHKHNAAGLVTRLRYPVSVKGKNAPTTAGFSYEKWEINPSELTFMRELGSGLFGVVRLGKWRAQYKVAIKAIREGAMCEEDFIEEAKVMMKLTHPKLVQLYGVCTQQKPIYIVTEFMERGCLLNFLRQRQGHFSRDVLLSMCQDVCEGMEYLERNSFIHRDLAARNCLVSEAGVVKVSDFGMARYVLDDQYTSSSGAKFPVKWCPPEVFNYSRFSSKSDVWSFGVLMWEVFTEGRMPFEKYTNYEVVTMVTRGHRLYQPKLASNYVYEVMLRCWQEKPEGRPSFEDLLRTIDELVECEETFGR

Sample 1 — read-out: enzyme activity; mode: inhibitor; concentration: 0.5 µM; baseline: control; measurement: remaining activity
Target: Serine/threonine-protein kinase D1 (PRKD1, Homo sapiens, UniProt Q15139)
UniProt Q15139, sequence (whole entry, looked up): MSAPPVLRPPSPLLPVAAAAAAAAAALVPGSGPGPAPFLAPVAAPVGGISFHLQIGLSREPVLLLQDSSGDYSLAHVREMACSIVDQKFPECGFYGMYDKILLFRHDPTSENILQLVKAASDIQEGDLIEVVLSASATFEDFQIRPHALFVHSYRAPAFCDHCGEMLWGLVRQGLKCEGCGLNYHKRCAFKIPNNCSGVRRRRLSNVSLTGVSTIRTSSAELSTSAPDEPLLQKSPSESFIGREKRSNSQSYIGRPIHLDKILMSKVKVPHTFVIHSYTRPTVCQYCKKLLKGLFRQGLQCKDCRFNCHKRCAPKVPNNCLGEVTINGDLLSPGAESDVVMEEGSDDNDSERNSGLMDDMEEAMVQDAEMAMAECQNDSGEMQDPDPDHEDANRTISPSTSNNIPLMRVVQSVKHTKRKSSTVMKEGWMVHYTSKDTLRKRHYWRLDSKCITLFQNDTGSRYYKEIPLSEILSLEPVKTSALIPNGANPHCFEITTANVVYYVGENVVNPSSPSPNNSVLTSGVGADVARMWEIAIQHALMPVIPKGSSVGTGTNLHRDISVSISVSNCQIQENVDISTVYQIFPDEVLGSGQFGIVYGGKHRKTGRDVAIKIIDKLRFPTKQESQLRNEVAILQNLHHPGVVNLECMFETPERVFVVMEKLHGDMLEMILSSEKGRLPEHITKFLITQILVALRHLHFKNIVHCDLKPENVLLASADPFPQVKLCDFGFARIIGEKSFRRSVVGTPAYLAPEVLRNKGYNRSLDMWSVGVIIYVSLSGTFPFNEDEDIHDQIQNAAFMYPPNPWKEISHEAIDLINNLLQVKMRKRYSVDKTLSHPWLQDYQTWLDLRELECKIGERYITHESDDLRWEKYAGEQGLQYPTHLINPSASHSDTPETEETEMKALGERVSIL
c1ccc2c(-c3ccncc3)c[nH]c2c1: 95.5%
O=c1cc(N2CCOCC2)oc2c(-c3ccccc3)cccc12: 98.3%
O=C(c1cc2cc(O)ccc2[nH]1)c1cc2cc(O)ccc2[nH]1: 58.5%
NC(=O)c1cccc(-c2cc(Nc3ccc(OC(F)(F)F)cc3)ncn2)c1: 99.5%
FC(F)(F)c1ccc(/C=C/c2nc(COc3ccc(CCCCn4ccnn4)cc3)co2)cc1: 93.2%
CC(C)n1cnc2c(Nc3cccc(Cl)c3)nc(NCCO)nc21: 99.2%
O=C1c2ccccc2-c2nc3nnnn3nc21: 86.5%
O=Nc1c(-c2c(O)[nH]c3cc(Br)ccc23)[nH]c2ccccc12: 93.6%
C[C@@H](N)[C@H]1CC[C@H](C(=O)Nc2ccncc2)CC1: 97.5%
CC(C)(C)c1nc2c3cc[nH]c(=O)c3c3cc(F)ccc3c2[nH]1: 8.19%
CCCNC(=O)Nc1ccc(Oc2ncnc3cc(OC)c(OC)cc23)cc1Cl: 92.9%
CCCCc1c(-c2ccc(O)cc2)[nH]c2nccnc12: 77.7%
COc1ccc(COc2ccc(Cc3cnc(N)nc3N)cc2OC)cc1: 95.2%
O=c1c(-c2ccc(F)cc2)c(-c2ccncc2)[nH]n1-c1ccc(Cl)cc1: 84.7%
O=C1NC(=O)c2c1c1c3ccccc3[nH]c1c1[nH]c3cc(Br)ccc3c21: 51.9%
c1cc(-c2cnn3cc(-c4ccc(OCCN5CCCCC5)cc4)cnc23)ccn1: 81.9%
O=C1Nc2ccccc2/C1=C\c1c(Cl)[nH]c2ccccc12: 89.5%
NC(=O)c1ccc(-c2nc(-c3ccc4c(c3)OCCO4)c(-c3ccccn3)[nH]2)cc1: 96.3%

Sample 2 — technique: RNAcompete; molecule type: RNA; matrix: in vitro; concentration: 20 nM; setting: 7-mer, probes averaged, single round; baseline: mean of 7-mers; reading: higher = stronger binding; measurement: 7-mer Z-score
Target: PABPC1L2, full length, GST fusion (mouse, UniProt A0ABA7IW68)
Residues (chain): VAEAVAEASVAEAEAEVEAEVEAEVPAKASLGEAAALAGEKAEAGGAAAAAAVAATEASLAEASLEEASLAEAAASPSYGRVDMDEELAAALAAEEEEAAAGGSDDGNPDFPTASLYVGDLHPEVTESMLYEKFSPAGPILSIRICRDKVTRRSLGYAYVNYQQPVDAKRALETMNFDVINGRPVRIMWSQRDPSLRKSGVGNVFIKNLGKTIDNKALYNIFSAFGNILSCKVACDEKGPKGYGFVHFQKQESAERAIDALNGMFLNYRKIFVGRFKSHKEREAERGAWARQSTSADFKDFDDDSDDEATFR
UGCGGGG: 0.325
AACCGGU: 0.0189
CUACAGU: -0.175
UUAAUAG: -0.17
CCUAUUC: -0.387
AUGUAUG: -0.197
AGACGCA: -0.159
UGUAAGG: 0.166

Sample 3 — read-out: cell-free assay; technique: competition with immobilised ligand; concentration: 1 µM; measurement: remaining binding
SMILES: CN(C)c1ncnc(-c2ccc3nc(Nc4cc(CN5CCN(C(=O)CC(F)(F)F)CC5)ccn4)[nH]c3c2)c1Cl
PIP4K2B (Homo sapiens, UniProt P78356): 52%
TNNI3K (Homo sapiens, UniProt Q59H18): 50%
TEC (Homo sapiens, UniProt P42680): 100%
CSNK1E (Homo sapiens, UniProt P49674): 100%
FLT3 (Homo sapiens, UniProt P36888): 71%
Cyclin-dependent kinase 4, with cyclin D3 (CDK4, Homo sapiens, UniProt P11802): 70%
FLT3 (Homo sapiens, UniProt P36888, ITD): 86%

Sample 4 — technique: protein-binding microarray; molecule type: double-stranded DNA, one strand shown; matrix: in vitro; concentration: not given; reading: higher = stronger binding; measurement: E-score
Target: Transcription factor Sp1 (SP1, Homo sapiens, UniProt P08047, residues 1-785, full length assumed)
UniProt P08047, sequence (whole entry, looked up): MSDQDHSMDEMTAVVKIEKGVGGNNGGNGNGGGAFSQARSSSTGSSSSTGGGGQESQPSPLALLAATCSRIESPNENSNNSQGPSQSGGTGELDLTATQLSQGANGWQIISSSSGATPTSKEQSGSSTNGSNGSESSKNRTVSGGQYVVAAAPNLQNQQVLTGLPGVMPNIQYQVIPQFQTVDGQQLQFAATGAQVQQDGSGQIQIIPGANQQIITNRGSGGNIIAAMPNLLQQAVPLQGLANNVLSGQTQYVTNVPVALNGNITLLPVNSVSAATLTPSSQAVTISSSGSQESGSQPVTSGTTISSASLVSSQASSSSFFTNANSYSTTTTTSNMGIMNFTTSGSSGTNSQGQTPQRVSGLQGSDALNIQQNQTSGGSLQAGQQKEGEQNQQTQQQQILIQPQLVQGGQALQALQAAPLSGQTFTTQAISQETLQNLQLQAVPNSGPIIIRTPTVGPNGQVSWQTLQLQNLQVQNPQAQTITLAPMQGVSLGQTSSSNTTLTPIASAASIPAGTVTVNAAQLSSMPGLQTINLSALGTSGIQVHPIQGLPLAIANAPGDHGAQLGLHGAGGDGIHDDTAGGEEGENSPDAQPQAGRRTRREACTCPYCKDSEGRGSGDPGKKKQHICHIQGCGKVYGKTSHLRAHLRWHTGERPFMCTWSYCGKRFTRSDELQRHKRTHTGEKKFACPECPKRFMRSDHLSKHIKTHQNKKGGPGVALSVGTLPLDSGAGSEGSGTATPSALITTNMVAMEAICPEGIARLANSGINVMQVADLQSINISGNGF
Setting: k-mer, scored over probes, only values ≥0.25
CACAACAC: 0.332
CACTCCCC: 0.396
AGTGGGTG: 0.354
CGCCCCTC: 0.48
CTCCCATA: 0.274
CCCCGCCG: 0.332
GGGGTGGA: 0.422
ACTCCCAC: 0.289

Single results of other studies — cell line: HaCaT; concentration: 100 µM; time: 36 h
CCn1cc(C(=O)O)c(=O)c2cnc(N3CCNCC3)nc21 — viability: 100%
NC(=O)N/N=C/c1ccc([N+](=O)[O-])o1 — viability: 31.3%

A few entries again (sample 3):
TEC (Homo sapiens, UniProt P42680): 100%
CSNK1E (Homo sapiens, UniProt P49674): 100%
FLT3 (Homo sapiens, UniProt P36888): 71%
